Published values gathered from unrelated publications.
Parts stem from different laboratories: compare values within a part only.
UniProt Q05655, sequence (whole entry, looked up): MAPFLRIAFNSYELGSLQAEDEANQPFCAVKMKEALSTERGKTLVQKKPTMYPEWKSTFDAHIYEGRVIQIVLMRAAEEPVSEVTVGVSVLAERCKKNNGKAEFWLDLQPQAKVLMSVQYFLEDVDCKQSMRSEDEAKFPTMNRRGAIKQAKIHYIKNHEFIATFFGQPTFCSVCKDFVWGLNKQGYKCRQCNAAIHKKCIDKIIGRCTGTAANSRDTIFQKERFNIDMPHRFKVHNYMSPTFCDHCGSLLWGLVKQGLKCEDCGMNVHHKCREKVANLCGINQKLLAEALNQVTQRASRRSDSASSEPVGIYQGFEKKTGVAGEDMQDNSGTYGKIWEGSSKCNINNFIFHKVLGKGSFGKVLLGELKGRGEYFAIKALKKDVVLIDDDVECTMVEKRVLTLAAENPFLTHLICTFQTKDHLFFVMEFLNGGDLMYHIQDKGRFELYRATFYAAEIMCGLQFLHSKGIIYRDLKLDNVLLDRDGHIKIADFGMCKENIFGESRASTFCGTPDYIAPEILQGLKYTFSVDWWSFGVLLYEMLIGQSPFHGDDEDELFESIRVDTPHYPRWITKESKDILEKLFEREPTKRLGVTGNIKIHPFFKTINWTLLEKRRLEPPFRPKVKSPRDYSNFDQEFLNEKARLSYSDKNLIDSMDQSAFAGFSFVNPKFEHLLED
UniProt Q9BXA7, sequence (whole entry, looked up): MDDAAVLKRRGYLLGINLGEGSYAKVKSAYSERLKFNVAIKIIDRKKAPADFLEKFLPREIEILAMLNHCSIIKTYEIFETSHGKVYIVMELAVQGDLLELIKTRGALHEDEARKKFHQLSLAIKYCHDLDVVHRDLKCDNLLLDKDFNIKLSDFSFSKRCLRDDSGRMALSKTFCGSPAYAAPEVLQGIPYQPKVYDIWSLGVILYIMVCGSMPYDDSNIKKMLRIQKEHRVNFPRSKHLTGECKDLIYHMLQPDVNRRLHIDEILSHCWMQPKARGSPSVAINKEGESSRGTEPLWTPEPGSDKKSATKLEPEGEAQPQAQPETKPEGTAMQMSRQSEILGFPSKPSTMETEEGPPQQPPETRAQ
UniProt P08581, sequence (whole entry, looked up): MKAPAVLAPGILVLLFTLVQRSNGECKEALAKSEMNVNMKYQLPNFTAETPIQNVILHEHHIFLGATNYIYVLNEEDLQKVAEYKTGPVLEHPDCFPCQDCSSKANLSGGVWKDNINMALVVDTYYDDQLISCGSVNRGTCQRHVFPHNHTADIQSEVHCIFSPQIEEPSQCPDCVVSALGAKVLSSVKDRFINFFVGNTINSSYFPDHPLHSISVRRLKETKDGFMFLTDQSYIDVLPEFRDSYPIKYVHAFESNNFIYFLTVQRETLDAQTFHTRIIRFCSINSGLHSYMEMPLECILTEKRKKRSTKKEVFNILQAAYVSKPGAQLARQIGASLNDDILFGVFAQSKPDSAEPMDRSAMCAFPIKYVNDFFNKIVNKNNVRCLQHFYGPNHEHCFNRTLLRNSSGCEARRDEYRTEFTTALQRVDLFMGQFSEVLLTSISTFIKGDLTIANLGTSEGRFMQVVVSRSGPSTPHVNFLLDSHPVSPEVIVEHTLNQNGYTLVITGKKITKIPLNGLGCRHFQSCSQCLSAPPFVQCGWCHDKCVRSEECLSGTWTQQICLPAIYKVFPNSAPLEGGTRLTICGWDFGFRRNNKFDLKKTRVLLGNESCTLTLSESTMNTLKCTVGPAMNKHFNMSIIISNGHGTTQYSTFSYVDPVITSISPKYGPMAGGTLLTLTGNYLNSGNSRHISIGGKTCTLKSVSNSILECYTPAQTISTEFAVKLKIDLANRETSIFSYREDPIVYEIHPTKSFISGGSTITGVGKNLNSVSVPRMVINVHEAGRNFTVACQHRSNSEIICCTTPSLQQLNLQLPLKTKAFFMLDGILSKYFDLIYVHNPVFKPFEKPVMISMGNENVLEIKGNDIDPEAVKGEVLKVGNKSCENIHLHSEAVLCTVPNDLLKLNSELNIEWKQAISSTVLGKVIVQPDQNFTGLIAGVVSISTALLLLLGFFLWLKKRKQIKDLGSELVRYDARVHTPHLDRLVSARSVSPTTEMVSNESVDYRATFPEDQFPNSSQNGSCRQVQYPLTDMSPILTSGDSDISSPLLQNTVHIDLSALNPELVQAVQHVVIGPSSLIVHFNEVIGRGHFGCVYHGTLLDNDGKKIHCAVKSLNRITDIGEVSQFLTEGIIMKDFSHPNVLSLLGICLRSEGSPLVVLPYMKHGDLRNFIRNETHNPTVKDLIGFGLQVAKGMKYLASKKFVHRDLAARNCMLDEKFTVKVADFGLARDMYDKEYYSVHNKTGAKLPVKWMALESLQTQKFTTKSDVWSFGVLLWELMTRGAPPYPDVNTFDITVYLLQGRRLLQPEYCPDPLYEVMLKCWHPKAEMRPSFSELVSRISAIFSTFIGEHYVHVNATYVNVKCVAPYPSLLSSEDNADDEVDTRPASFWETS
UniProt Q13470, sequence (whole entry, looked up): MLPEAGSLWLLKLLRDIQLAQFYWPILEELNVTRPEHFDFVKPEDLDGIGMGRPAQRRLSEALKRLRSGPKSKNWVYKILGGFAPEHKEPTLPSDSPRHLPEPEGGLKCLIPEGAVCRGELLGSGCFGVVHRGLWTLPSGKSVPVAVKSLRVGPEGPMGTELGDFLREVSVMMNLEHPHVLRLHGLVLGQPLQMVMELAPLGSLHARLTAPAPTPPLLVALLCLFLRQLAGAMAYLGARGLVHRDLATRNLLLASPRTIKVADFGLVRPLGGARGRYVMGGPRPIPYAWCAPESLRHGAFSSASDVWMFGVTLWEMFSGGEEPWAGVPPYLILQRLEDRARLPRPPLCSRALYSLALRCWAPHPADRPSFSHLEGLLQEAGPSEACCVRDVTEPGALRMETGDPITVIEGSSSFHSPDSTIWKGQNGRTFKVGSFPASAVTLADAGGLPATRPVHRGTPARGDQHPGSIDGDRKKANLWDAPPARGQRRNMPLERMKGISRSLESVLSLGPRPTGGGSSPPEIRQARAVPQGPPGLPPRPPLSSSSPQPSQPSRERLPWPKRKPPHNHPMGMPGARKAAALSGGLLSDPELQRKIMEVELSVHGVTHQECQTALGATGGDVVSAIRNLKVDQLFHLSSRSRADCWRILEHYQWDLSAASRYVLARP
UniProt P42685, sequence (whole entry, looked up): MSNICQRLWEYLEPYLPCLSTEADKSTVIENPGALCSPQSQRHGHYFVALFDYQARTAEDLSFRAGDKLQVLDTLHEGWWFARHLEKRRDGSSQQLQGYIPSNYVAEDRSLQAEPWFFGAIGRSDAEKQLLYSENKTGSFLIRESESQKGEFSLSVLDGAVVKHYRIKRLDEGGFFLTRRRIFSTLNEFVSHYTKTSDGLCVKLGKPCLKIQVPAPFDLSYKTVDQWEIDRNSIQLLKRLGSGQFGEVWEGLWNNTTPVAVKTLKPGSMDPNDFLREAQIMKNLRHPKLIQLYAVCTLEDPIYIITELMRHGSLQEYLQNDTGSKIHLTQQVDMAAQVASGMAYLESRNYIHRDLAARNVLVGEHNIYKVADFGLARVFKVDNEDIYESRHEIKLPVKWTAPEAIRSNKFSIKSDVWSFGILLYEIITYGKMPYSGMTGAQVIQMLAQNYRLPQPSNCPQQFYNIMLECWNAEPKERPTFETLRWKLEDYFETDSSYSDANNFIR

Block 1
Compound: CC#CC(=O)N1CCC[C@H]1c1nc(-c2ccc(C(=O)Nc3ccccn3)cc2)c2c(N)nccn12
Effect on: enzyme activity
Action: inhibitor
Tested at: 1 µM
target | inhibition [%]
Testis-specific serine/threonine-protein kinase 1 (TSSK1B, Homo sapiens, UniProt Q9BXA7) | 0
Protein kinase C delta type (PRKCD, Homo sapiens, UniProt Q05655) | 14
Tyrosine-protein kinase FRK (FRK, Homo sapiens, UniProt P42685) | 43
Non-receptor tyrosine-protein kinase TNK1 (TNK1, Homo sapiens, UniProt Q13470) | 12
Atypical kinase COQ8A, mitochondrial (COQ8A, Homo sapiens, UniProt Q8NI60) | 2
Ephrin type-B receptor 1 (EPHB1, Homo sapiens, UniProt P54762) | 0
Myosin light chain kinase, smooth muscle (MYLK, Homo sapiens, UniProt Q15746) | 10
Receptor-interacting serine/threonine-protein kinase 2 (RIPK2, Homo sapiens, UniProt O43353) | 56
Mast/stem cell growth factor receptor Kit (KIT, Homo sapiens, UniProt P10721, A829P) | 0
Proto-oncogene tyrosine-protein kinase Src (SRC, Homo sapiens, UniProt P12931) | 21

Block 2
Target: Homeodomain-interacting protein kinase 1 (HIPK1, Homo sapiens, UniProt Q86Z02)
UniProt Q86Z02, sequence (whole entry, looked up): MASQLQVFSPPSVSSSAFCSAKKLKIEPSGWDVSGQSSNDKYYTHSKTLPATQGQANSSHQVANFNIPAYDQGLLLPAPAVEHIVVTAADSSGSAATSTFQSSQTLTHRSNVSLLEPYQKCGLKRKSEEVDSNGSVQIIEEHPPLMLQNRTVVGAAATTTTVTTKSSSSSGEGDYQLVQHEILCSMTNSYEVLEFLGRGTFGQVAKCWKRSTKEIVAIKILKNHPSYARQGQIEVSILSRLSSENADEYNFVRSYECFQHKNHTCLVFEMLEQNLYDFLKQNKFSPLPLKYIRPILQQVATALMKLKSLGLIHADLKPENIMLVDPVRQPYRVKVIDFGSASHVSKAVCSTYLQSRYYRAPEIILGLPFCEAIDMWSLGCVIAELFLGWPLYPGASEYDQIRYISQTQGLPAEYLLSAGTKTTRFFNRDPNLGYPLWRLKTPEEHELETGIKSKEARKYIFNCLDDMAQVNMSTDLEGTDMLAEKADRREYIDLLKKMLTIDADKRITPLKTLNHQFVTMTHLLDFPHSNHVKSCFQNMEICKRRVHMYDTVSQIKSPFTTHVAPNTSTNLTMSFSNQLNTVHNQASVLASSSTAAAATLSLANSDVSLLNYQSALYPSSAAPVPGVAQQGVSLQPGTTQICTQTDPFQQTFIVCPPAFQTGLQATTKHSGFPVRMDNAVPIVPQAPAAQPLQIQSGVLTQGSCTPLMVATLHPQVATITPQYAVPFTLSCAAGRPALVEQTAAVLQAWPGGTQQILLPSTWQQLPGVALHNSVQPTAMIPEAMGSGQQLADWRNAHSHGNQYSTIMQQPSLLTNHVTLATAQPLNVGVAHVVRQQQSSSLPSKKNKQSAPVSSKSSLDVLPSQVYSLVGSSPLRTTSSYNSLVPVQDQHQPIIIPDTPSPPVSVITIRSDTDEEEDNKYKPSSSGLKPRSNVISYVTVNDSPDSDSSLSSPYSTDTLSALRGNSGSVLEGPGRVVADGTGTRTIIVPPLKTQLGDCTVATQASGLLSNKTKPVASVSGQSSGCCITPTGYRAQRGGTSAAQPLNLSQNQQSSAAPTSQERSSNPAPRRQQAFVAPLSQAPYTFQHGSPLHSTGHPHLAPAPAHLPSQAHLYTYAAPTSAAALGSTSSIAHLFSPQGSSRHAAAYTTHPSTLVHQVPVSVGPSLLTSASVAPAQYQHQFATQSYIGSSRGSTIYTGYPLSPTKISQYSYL
Effect on: enzyme activity
Action: inhibitor
Tested at: 0.5 µM
Relative to: control
SMILES | remaining activity
Nc1ncnc2n[nH]c(Nc3ccc(F)cc3)c12 | 106%
COc1cc2nccc(Oc3ccc(NC(=S)NC(=O)c4ccccc4C)cc3)c2cc1OC | 100%
COc1cc2ncnc(Nc3ccc(Oc4ccccc4)cc3)c2cc1OC | 102%
CN(C)c1ccc(C=C2C(=O)Nc3ccccc32)cc1 | 103%
O=C(O)c1ccc2c3c1cccc3c(=O)n1c3ccccc3nc21 | 104%
N#CC(C#N)=C(N)/C(C#N)=C/c1ccc(O)cc1 | 103%
Cc1cccc(-c2[nH]c(C(C)(C)C)nc2-c2ccc3c(c2)OCO3)n1 | 101%
O=C(Nc1cccc(Nc2cc(Nc3cccc(C(F)(F)F)c3)ncn2)c1)C1CC1 | 99.7%
O=C(CCCc1ccc(-c2ccccc2F)cc1)Nc1ccc(O)cc1 | 105%
Nc1ccc2ncnc(NCCc3ccc(Oc4ccccc4)cc3)c2c1 | 104%
COc1ccc(OC)c2c(=S)c3ccccc3[nH]c12 | 107%
O=S(=O)(c1cccc2cnccc12)N1CCCNCC1 | 96.8%
Oc1ccc(-c2nc(-c3ccncc3)c(-c3ccc(F)cc3)[nH]2)cc1 | 98.2%
O=c1c2ccccc2[nH]c(=S)n1CCN1CCC(=C(c2ccc(F)cc2)c2ccc(F)cc2)CC1 | 107%

Block 3
Compound: C[C@H]1CC[C@H](n2c3cnccc3c3cnc(Nc4ccc5c(n4)CCN(C(=O)CO)C5)nc32)CC1
Tested at: 1 µM
target | effect on | technique | remaining binding [%]
Mitogen-activated protein kinase 11 (MAPK11, Homo sapiens, UniProt Q15759) | binding | competition with immobilised ligand | 87
Serine/threonine-protein kinase MRCK gamma (CDC42BPG, Homo sapiens, UniProt Q6DT37) |  | DiscoverX KINOMEscan | 100
Receptor tyrosine-protein kinase erbB-3 (ERBB3, Homo sapiens, UniProt P21860) | binding | competition with immobilised ligand | 84
Mitogen-activated protein kinase 12 (MAPK12, Homo sapiens, UniProt P53778) | binding | competition with immobilised ligand | 100
Ephrin type-A receptor 8 (EPHA8, Homo sapiens, UniProt P29322) | cell-free assay | competition with immobilised ligand | 88
Fibroblast growth factor receptor 1 (FGFR1, Homo sapiens, UniProt P11362) | cell-free assay | competition with immobilised ligand | 87
Dual specificity testis-specific protein kinase 1 (TESK1, Homo sapiens, UniProt Q15569) | binding | competition with immobilised ligand | 100
Ribosomal protein S6 kinase alpha-2, C-terminal kinase domain (RPS6KA2, Homo sapiens, UniProt Q15349) | binding | competition with immobilised ligand | 91
Dual specificity mitogen-activated protein kinase kinase 5 (MAP2K5, Homo sapiens, UniProt Q13163) | binding | competition with immobilised ligand | 0.65
Cyclin-dependent kinase 15 (CDK15, Homo sapiens, UniProt Q96Q40) | binding | competition with immobilised ligand | 27

Block 4
Structure (SMILES): CO[C@@H](C)c1c(Nc2ccc([C@H](N(C)C(=O)C3CCS(=O)(=O)CC3)C(F)(F)F)cc2)cnc2cc(Cl)nn12
Effect on: cell-free assay
Technique: competition with immobilised ligand
Tested at: 1 µM
target | remaining binding [%]
Ribosomal protein S6 kinase alpha-4, C-terminal kinase domain (RPS6KA4, Homo sapiens, UniProt O75676) | 100
5'-AMP-activated protein kinase catalytic subunit alpha-1 (PRKAA1, Homo sapiens, UniProt Q13131) | 99
Protein kinase C eta type (PRKCH, Homo sapiens, UniProt P24723) | 86
Hepatocyte growth factor receptor (MET, Homo sapiens, UniProt P08581) | 100
Activin receptor type-1 (ACVR1, Homo sapiens, UniProt Q04771) | 94
Vascular endothelial growth factor receptor 3 (FLT4, Homo sapiens, UniProt P35916) | 89
Wee1-like protein kinase (WEE1, Homo sapiens, UniProt P30291) | 88
Protein kinase C delta type (PRKCD, Homo sapiens, UniProt Q05655) | 79
Rhodopsin kinase GRK1 (GRK1, Homo sapiens, UniProt Q15835) | 82
Serine/threonine-protein kinase SIK3 (SIK3, Homo sapiens, UniProt Q9Y2K2) | 100
Mitogen-activated protein kinase kinase kinase 5 (MAP3K5, Homo sapiens, UniProt Q99683) | 84

A few entries again (block 4):
target | remaining binding [%]
Rhodopsin kinase GRK1 (GRK1, Homo sapiens, UniProt Q15835) | 82
Serine/threonine-protein kinase SIK3 (SIK3, Homo sapiens, UniProt Q9Y2K2) | 100
Mitogen-activated protein kinase kinase kinase 5 (MAP3K5, Homo sapiens, UniProt Q99683) | 84
